# Measurements collected from several papers.
# Target: Serine/threonine-protein kinase VRK2 (VRK2, Homo sapiens, UniProt Q86Y07)
Compound,assay,system,setting,how to read,quantity,result
CNC1C[S+]2CC[S+]3CC[S+](C1)[Ru-4]321([N]=C=S)[n]2c3ccc(OC)cc3c3c4c(c5cc(F)c[n+]1c5c32)C(=O)NC4=O (stereo not drawn),KinomeScan,,0.1 µM,relative to: untreated,remaining binding,97%
COc1cc(Nc2nccc(-c3cnn4nc(OC)ccc34)n2)cc(C(F)(F)F)c1,"binding, competition with immobilised ligand",,1 µM,,remaining binding,84%
Cc1nc2c(F)cc(-c3nc(Nc4ccc(CNC(=O)CCCCCCC(=O)NO)cc4)ncc3F)cc2n1C(C)C,"enzyme activity, inhibitor",,1 µM,,inhibition,8%
COc1c(Cl)cccc1Nc1c(-c2ccncc2C#C[C@@]2(C)CCCN2C(=O)/C=C/CN(C)C)[nH]c2c1C(=O)NCC2,"binding, competition with immobilised ligand",,3 µM,,remaining binding,53%
Nc1ncc(-c2cc(-c3cnn(CC(F)(F)F)c3)ncc2F)nc1C(=O)NC1CNCC(F)C1 (stereo not drawn),enzyme activity,,1 µM,relative to: DMSO control,remaining activity,92%
Cc1cc(NC(=O)[C@H](O)c2cc(F)cc(F)c2)ccc1-c1cnc(N)c(C(=O)NC(C)C)c1,"binding, competition with immobilised ligand",,1 µM,,remaining binding,57%
CNC(=O)C[C@H](Cc1ccc(C#N)cc1)NC(=O)c1cc(-c2ccc(CN[C@H](C)c3ccc(C)cc3)o2)ccc1Cl,"enzyme activity, inhibitor",,1 µM,,activity vs control,96%
CN1CC[C@@H](COc2cnc(C#N)cc2-c2ccn3nc(NC(=O)C4CC4)cc3c2)C1,"enzyme activity, inhibitor",,1 µM,,inhibition,-6%
CC(C)=CC1OC(C)(C)C2C=C3C(=O)C(Cl)=CC(O)C3C3C(O)C4OC4C(=O)C132 (stereo not drawn),"cell-free assay, competition with immobilised ligand",,10 µM,,remaining binding,96%
C=CC(=O)Nc1cc(-c2nn(C3CCN(CCNC(=O)[C@H](C)CCC45CC6CC(CC(C6)C4)C5)CC3)c3ncnc(N)c23)ccc1Oc1ccccc1,"inhibitor, KiNativ profiling",biochemical,2 µM,,inhibition,17.9%
C=CC(=O)N1CCc2ccc(-n3c(=O)ccc4cnc5ccc(-c6cnn(C)c6)cc5c43)cc21,KINOMEscan,,1 µM,relative to: DMSO control,remaining binding,89%
C=CC(=O)N1Cc2nc(-c3cc(-c4cc(Cl)cnc4Cl)c(F)cc3F)n(-c3ccncn3)c2C1,"cell-free assay, inhibitor",,1 µM,,inhibition,5.3%
NC(=O)[C@@H](O)C[C@H]1CCc2sc3ncnc(O[C@H]4CC[C@H](N5CCOCC5)CC4)c3c21,"enzyme activity, inhibitor",,10 µM,,inhibition,-4%
C=CC(=O)N1CCCC(n2c(=O)c3ncccc3n(Cc3ccc(Oc4ccccc4)cc3)c2=O)C1 (stereo not drawn),"cell-free assay, competition with immobilised ligand",,1 µM,,remaining binding,63%
Nc1ncc2c(n1)-c1c([nH]c3ccc(C4=CCOCC4)cc13)CCC2,"binding, competition with immobilised ligand",,1 µM,,remaining binding,73%

# Excerpt of the above:
Compound,assay,system,setting,how to read,quantity,result
C=CC(=O)N1CCCC(n2c(=O)c3ncccc3n(Cc3ccc(Oc4ccccc4)cc3)c2=O)C1 (stereo not drawn),"cell-free assay, competition with immobilised ligand",,1 µM,,remaining binding,63%
